Results gathered from unrelated publications.
Protocols differ between the studies behind these lines. “And” joins repeats or separate records; there may be more than shown. ± marks the error that the study gave.

With `CC[C@H](C)[C@H](NC(=O)[C@H](CCCCN)NC(=O)CNC(=O)[C@H](CC(C)C)NC(=O)[C@H](Cc1ccccc1)NC(=O)[C@H](CCCCN)NC(=O)[C@H](CO)NC(=O)[C@H](Cc1ccccc1)NC(=O)[C@H](Cc1c[nH]c2ccccc12)NC(=O)[C@H](CCC(N)=O)NC(=O)[C@@H](NC(=O)[C@H](Cc1ccccc1)NC(=O)CCCCCNC(=O)CN1CCN(CC(=O)O)CCN(CC(=O)O)CCN(CC(=O)O)CC1)C(C)C)C(=O)N[C@@H](CCC(=O)O)C(=O)N1CCC[C@H]1C(=O)N[C@@H](CC(=O)O)C(=O)N[C@H](C(=O)N[C@@H](CO)C(=O)N[C@@H](CCC(N)=O)C(=O)N[C@H](C(=O)N[C@@H](CCC(N)=O)C(=O)N[C@@H](CC(=O)O)C(=O)N1CCC[C@H]1C(=O)N[C@@H](CC(N)=O)C(=O)N[C@@H](CC(=O)O)C(=O)N[C@@H](CCC(N)=O)C(=O)N[C@@H](Cc1ccc(O)cc1)C(=O)N[C@@H](CCC(=O)O)C(=O)N1CCC[C@H]1C(=O)N[C@@H](Cc1ccccc1)C(=O)O)C(C)C)C(C)C` [copper-64 labelled] the SUVmean was 4.27 SUV (dynamic PET; mouse, CT26 tumour, checkpoint inhibitor-treated, tumour; intravenous, 100 µCi/mouse, 1980 s).
With `CCN(CCCCOc1ccc(CCC(=O)N2CCC(Cc3ccccc3)CC2)cc1OC)Cc1ccccc1` the excretion rate was 0.0039 ± 0.0014% (Sprague-Dawley rats, both sexes, urine; oral gavage, 25 mg/kg, 24 to 48 h; reference: dose).
For `O=C(O)/C=C\c1ccc2occc2c1O[C@@H]1O[C@H](CO)[C@@H](O)[C@H](O)[C@H]1O`, the Cmax decrease was 153 ± 84.8 ng/mL (rat, plasma; oral, dose not given, dosed as combined Eu and Pc extracts; reference: single extracts).
`CC(C)C[C@@H](NC(=O)[C@@H](CCCNC(=N)N)NC(=O)[C@@H](Cc1c[nH]cn1)NC(=O)[C@@H](Cc1c[nH]c2ccccc12)NC(=O)[C@@H](Cc1c[nH]cn1)NC(=O)[C@@H](Cc1ccccc1)NC(=O)[C@H](NC(=O)[C@@H](Cc1ccc(O)cc1)NC(=O)CNC(=O)CNC(=O)CCOCCOCCOCCNC(=O)CN1CCN(CC(=O)O)CCN(CC(=O)O)CC1)[C@H](C)O)C(=O)N[C@H](CC(N)=O)C(=O)N1CCC[C@@H]1C(=O)O` [gallium-68 labelled] has a tissue uptake of 1.07 ± 0.14 %ID/g (C57BL/6 mice, male, liver; intravenous, 1.85 MBq, 60 min, with: blocking antibody).
With `CC[C@H](C)[C@H](NC(=O)[C@H](CCCNC(=N)N)NC(=O)[C@H](CCCCN)NC(=O)[C@H](Cc1ccc(O)cc1)NC(=O)[C@H](CC(=O)O)NC(=O)[C@H](C)NC(=O)CNC(=O)CCOCCOCCOCCNC(=O)CN1CCN(CC(=O)O)CCN(CC(=O)O)CCN(CC(=O)O)CC1)C(=O)N[C@H](C(=O)N[C@@H](CC(C)C)C(=O)N[C@@H](CCCCN)C(=O)N[C@H](C(=O)N[C@@H](CC(N)=O)C(N)=O)C(C)C)[C@@H](C)O` [copper-64 labelled] the tissue uptake was 3.26 ± 0.866 %ID/g (ex vivo gamma counting; male C57BL/6J mouse, B16-F10 tumour, intestinal lymph node; intravenous, 1.85 MBq, 5 min).
`N#[11C]c1ccc(-c2csc(NN=C3CCCC3)n2)cc1` — result for “peak radioactivity uptake”: 1.1 SUV (dynamic PET/CT; C57BL/6 mouse, kidneys; intravenous, dose not given, 1 min).
`CCCCCCCCCCCCCCCC(=O)N[C@@H](CCC(=O)NCCOCCOCCC(=O)NCCOCCOCCC(=O)NCCCC[C@H](NC(=O)[C@H](CC(=O)O)NC(=O)[C@H](CC(C)C)NC(=O)[C@H](Cc1ccc(O)cc1)NC(=O)[C@H](CCCCN)NC(=O)[C@H](CO)NC(=O)[C@H](Cc1ccc(O)cc1)NC(=O)[C@H](CC(=O)O)NC(=O)[C@H](CO)NC(=O)[C@@H](NC(=O)[C@H](Cc1ccccc1)NC(=O)[C@@H](NC(=O)CNC(=O)[C@H](CCC(N)=O)NC(=O)[C@@H](CO)NC(=O)[C@@H](N)Cc1c[nH]cn1)[C@@H](C)O)[C@@H](C)O)C(=O)N[C@@H](CCCNC(=N)N)C(=O)N[C@@H](CCCNC(=N)N)C(=O)N[C@@H](C)C(=O)N[C@@H](CCC(N)=O)C(=O)N[C@@H](CC(=O)O)C(=O)N[C@@H](Cc1ccccc1)C(=O)N[C@H](C(=O)N[C@@H](CCC(N)=O)C(=O)N[C@@H](Cc1c[nH]c2ccccc12)C(=O)N[C@@H](CC(C)C)C(=O)N[C@@H](CC(C)C)C(=O)N[C@@H](CC(N)=O)C(=O)N[C@H](C(=O)NCC(=O)NCC(=O)N1CCC[C@H]1C(=O)N[C@@H](CO)C(=O)N[C@@H](CO)C(=O)NCC(=O)N[C@@H](C)C(=O)N1CCC[C@H]1C(=O)N1CCC[C@H]1C(=O)N1CCC[C@H]1C(=O)N[C@@H](CO)C(N)=O)[C@@H](C)O)C(C)C)C(=O)O` — result for “serum enzyme activity”: 150 ± 30.7 U/L (measured: ALP; Sprague-Dawley rat, male; subcutaneous, 20 µg/kg once daily, 14 days).
Under “total volume of distribution”, `CN1Cc2cc(Cl)ccc2-n2c(nnc2C2CCN(c3cccc([18F])n3)CC2)C1` is recorded as 1.1 ± 0.47 mL/cm3 (PET two-tissue compartment model; rhesus monkey, occipital cortex; intravenous, dose not given, 100 min scan, baseline scan).
`CC[C@H](C)[C@@H]1NC(=O)[C@H](Cc2ccc(O)cc2)NC(=O)CCCSC[C@@H](C(=O)N(CC(=O)N[C@@H](CC(C)C)C(=O)NCC(N)=O)Cc2ccc(F)cc2)NC(=O)[C@H](CC(N)=O)NC(=O)[C@H](CCC(N)=O)NC1=O` gave a deaths of 0% (human; intranasal and intravenous, 400 µg intranasal and 20 µg intravenous).
`CC(C)C[C@H](NC(=O)[C@H](CCCNC(=N)N)NC(=O)[C@H](Cc1ccccc1)NC(=O)[C@H](Cc1ccccc1)NC(=O)[C@@H](N)[C@@H](C)O)C(=O)N[C@@H](Cc1ccccc1)C(=O)N[C@@H](CC(N)=O)C(=O)N[C@@H](CCCNC(=N)N)C(=O)N[C@@H](C)C(=O)N[C@@H](CCCCN)C(=O)N[C@@H](CCCNC(=N)N)C(=O)N[C@@H](Cc1c[nH]cn1)C(=O)N[C@@H](Cc1c[nH]cn1)C(=O)NCC(=O)N[C@@H](Cc1ccc(O)cc1)C(=O)N[C@@H](CCCCN)C(=O)N[C@@H](CCCNC(=N)N)C(=O)N[C@@H](CCCCN)C(=O)N[C@@H](Cc1ccccc1)C(=O)N[C@@H](Cc1c[nH]cn1)C(=O)O` gave a peptide concentration of 0.119 mg/mL (HPLC-UV; human saliva; 6 h, 37 °C, with: initial 1 mg/mL).
With `COc1cnc2cccc(N3CCc4c(cc(Cn5ccnc5)cc4-c4cn(C)nc4C(F)(F)F)C3=O)c2c1` the body weight was 24.9 g and 21.5 g and 20.7 g and 23 g (BALB/c nude mice, MV4-11 xenograft; intraperitoneal, 50 mg/kg, day 14).
`O=C(O)c1ccc(-c2nc(-c3ccccc3Cl)c3sccn23)cc1` — result for leukocyte recovery: “no effect” (C57BL/6 mouse 5-FU stress; dose not given).
The prothrombin time of `O=C1NC2(CC2)COc2ncc(F)cc2[C@H]2COCCN2c2ccn3ncc1c3n2` is reported as 8.3 ± 0.2 s (Sprague-Dawley rat, female, plasma; oral, 20 mg/kg/day, end of treatment, 4-week repeated-dose toxicity).
`CSCC[C@H](N)C(=O)N[C@@H](C)C(=O)N[C@@H](Cc1c[nH]c2ccccc12)C(=O)N[C@@H](Cc1c[nH]cn1)C(=O)N[C@@H](CC(=O)O)C(=O)N[C@@H](CC(=O)O)C(=O)N[C@@H](CCC(=O)O)C(=O)N[C@@H](CCC(=O)O)C(=O)N[C@@H](Cc1ccccc1)C(=O)N[C@@H](C)C(=O)N[C@@H](CCCNC(=N)N)C(=O)N[C@@H](CCCNC(=N)N)C(=O)N[C@@H](CCCNC(=N)N)C(=O)N[C@@H](CCCNC(=N)N)C(=O)NCCCCCC(=O)NCCCCC(NC(=O)CCCCCNC(=O)[C@H](CCCNC(=N)N)NC(=O)[C@H](CCCNC(=N)N)NC(=O)[C@H](CCCNC(=N)N)NC(=O)[C@H](CCCNC(=N)N)NC(=O)[C@H](C)NC(=O)[C@H](Cc1ccccc1)NC(=O)[C@H](CCC(=O)O)NC(=O)[C@H](CCC(=O)O)NC(=O)[C@H](CC(=O)O)NC(=O)[C@H](CC(=O)O)NC(=O)[C@H](Cc1c[nH]cn1)NC(=O)[C@H](Cc1c[nH]c2ccccc12)NC(=O)[C@H](C)NC(=O)[C@@H](N)CCSC)C(=O)NCCCCC(NC(=O)C(CCCCNC(=O)CCCCCNC(=O)[C@H](CCCNC(=N)N)NC(=O)[C@H](CCCNC(=N)N)NC(=O)[C@H](CCCNC(=N)N)NC(=O)[C@H](CCCNC(=N)N)NC(=O)[C@H](C)NC(=O)[C@H](Cc1ccccc1)NC(=O)[C@H](CCC(=O)O)NC(=O)[C@H](CCC(=O)O)NC(=O)[C@H](CC(=O)O)NC(=O)[C@H](CC(=O)O)NC(=O)[C@H](Cc1c[nH]cn1)NC(=O)[C@H](Cc1c[nH]c2ccccc12)NC(=O)[C@H](C)NC(=O)[C@@H](N)CCSC)NC(=O)CCCCCNC(=O)[C@H](CCCNC(=N)N)NC(=O)[C@H](CCCNC(=N)N)NC(=O)[C@H](CCCNC(=N)N)NC(=O)[C@H](CCCNC(=N)N)NC(=O)[C@H](C)NC(=O)[C@H](Cc1ccccc1)NC(=O)[C@H](CCC(=O)O)NC(=O)[C@H](CCC(=O)O)NC(=O)[C@H](CC(=O)O)NC(=O)[C@H](CC(=O)O)NC(=O)[C@H](Cc1c[nH]cn1)NC(=O)[C@H](Cc1c[nH]c2ccccc12)NC(=O)[C@H](C)NC(=O)[C@@H](N)CCSC)C(N)=O` (some centres unmarked) has a tissue distribution of 0.81% and 0.98% and 0.8% (C57BL/6 mouse female, thymus; dose not given, 3 h; reference: total).
For `CC(C)[C@H](NC(=O)[C@@H](NC(=O)[C@H](CCCNC(=N)N)NC(=O)[C@H](CCCNC(=N)N)NC(=O)[C@H](CCCNC(=N)N)NC(=O)[C@H](CCC(N)=O)NC(=O)[C@H](CCCNC(=N)N)NC(=O)[C@H](CCCNC(=N)N)NC(=O)[C@H](CCCCN)NC(=O)[C@H](CCCCN)NC(=O)[C@H](CCCNC(=N)N)NC(=O)CN)[C@@H](C)O)C(=O)N[C@H](C(=O)N[C@@H](CO)C(=O)N1CCC[C@H]1C(=O)O)[C@@H](C)O`, the kidney weight was 0.294 ± 0.016 g (ICR mouse, male, left kidney; intranasal, 20 mg/kg daily, 4 weeks).
`O=C(c1cc(Cc2n[nH]c(=O)c3ccccc23)ccc1F)N1CC(CNC2CC2)C1` gave a Cmax of 952 ng/mL (male Wistar Han rat; oral, 15 mg/kg, day 28).
Under “apparent clearance CL/F”, `CC(=O)NCCCC[C@@H]1NC(=O)[C@H](Cc2c[nH]c3c(C)cccc23)NC(=O)[C@H]([C@@H](C)O)NC(=O)[C@H](CC(N)=O)NC(=O)[C@@H](NC(C)=O)C(C)(C)SSC(C)(C)[C@@H](C(=O)N[C@@H](Cc2ccc(OCCN)cc2)C(=O)N[C@@H](Cc2ccc3ccccc3c2)C(=O)NC2(C(=O)N[C@@H](CCC(=O)O)C(=O)N[C@@H](CC(N)=O)C(=O)N[C@@H](Cc3cccnc3)C(=O)N(C)CC(N)=O)CCOCC2)NC1=O` is recorded as 6100 ± 2100 L/h (human; oral, 300 mg multiple doses, day 10).

A few entries again:
With `CCN(CCCCOc1ccc(CCC(=O)N2CCC(Cc3ccccc3)CC2)cc1OC)Cc1ccccc1` the excretion rate was 0.0039 ± 0.0014% (Sprague-Dawley rats, both sexes, urine; oral gavage, 25 mg/kg, 24 to 48 h; reference: dose).
For `O=C(O)/C=C\c1ccc2occc2c1O[C@@H]1O[C@H](CO)[C@@H](O)[C@H](O)[C@H]1O`, the Cmax decrease was 153 ± 84.8 ng/mL (rat, plasma; oral, dose not given, dosed as combined Eu and Pc extracts; reference: single extracts).
